Assay results of several laboratories.
Compare with care: the assays were run in different laboratories.
Cell line: MDA-MB-231
Read-out: cell growth or viability

With CCOC(=O)C(C(C)=O)=C1Sc2nc3ccc(S(=O)(=O)N4CCCC4)cc3nc2S1 the viability was 57.5% (MTT; 1.56 µM, 24 h).
CNCCC(=O)Nc1ccccc1/N=c1\cc(-c2ccc3nc(N)oc3c2)oc2ccccc12 has an inhibition of 69.5% (CCK-8; 1 µM).
CCOc1ccc2c(C)c(CC)c(=O)oc2c1C has a viability of 7.09% (MTT; 500 µg/mL).
With COc1ccc2/c(=N/c3ccccc3NC(=O)[C@@H](N)CO)cc(-c3ccc4c(c3)OCCO4)oc2c1 the inhibition was 6.42% (CCK-8; 1 µM).
With COc1cccc(NC(=O)Nc2ccc(Oc3nc4ccccc4n4cnnc34)cc2)c1 the viability was 100% (MTT; 1.56 µM, 24 h).
For NCC(=O)Nc1ccccc1/N=c1\cc(-c2ccc3c(c2)OCO3)oc2c([N+](=O)[O-])cccc12, the inhibition was 10.5% (CCK-8; 1 µM).
For O=C(Nc1ccccc1)Nc1ccc(Oc2nc3ccccc3n3cnnc23)cc1, the viability was 99.5% (MTT; 6.25 µM, 24 h).
For O=C1CCCCC1=C1Sc2nc3ccc(S(=O)(=O)N4CCCC4)cc3nc2S1, the viability was 88.6% (MTT; 1.56 µM, 24 h).
CNC(=O)c1cc(Oc2ccc(NC(=O)Nc3ccc(Cl)c(C(F)(F)F)c3)cc2)ccn1 gave a viability of 32.1% (MTT; 12.5 µM, 24 h).
For CCc1c(C)c2ccc(OCC(=O)NNC(=S)Nc3ccccc3)c(C)c2oc1=O, the viability was 21.1% (MTT; 62.5 µg/mL).
COc1ccc2oc(-c3ccc4nc(N)oc4c3)c/c(=N\c3ccccc3NC(=O)CCN)c2c1 gave an inhibition of 70.7% (CCK-8; 1 µM).
CCNC(=S)NNC(=O)COc1ccc2c(C)c(CC)c(=O)oc2c1C has a viability of 22.9% (MTT; 250 µg/mL).
With N#CC(C(=O)Nc1cccc(C(F)(F)F)c1)=C1Sc2nc3ccc(S(=O)(=O)N4CCCC4)cc3nc2S1 the viability was 95% (MTT; 1.56 µM, 24 h).
For O=C(Nc1ccc(Oc2nc3ccccc3n3cnnc23)cc1)Nc1cccc(Cl)c1, the viability was 70.6% (MTT; 12.5 µM, 24 h).
For CCCOc1ccc2c(C)c(CC)c(=O)oc2c1C, the viability was 35.4% (MTT; 250 µg/mL).
For NCC(=O)Nc1ccccc1/N=c1\cc(-c2ccc3c(c2)OCCO3)oc2ccccc12, the inhibition was -9.47% (CCK-8; 1 µM).
For O=C(Nc1ccc(Cl)cc1)Nc1ccc(Oc2nc3ccccc3n3cnnc23)cc1, the viability was 100% (MTT; 6.25 µM, 24 h).
The viability of Cc1c(Cc2ccccc2)c(=O)oc2c(C)c(OCC(=O)NN=Cc3ccc(Cl)cc3)ccc12 is reported as 30.8% (MTT; 125 µg/mL).
For C[C@H](N)C(=O)Nc1ccccc1/N=c1\cc(-c2ccc3c(c2)OCCO3)oc2cc(F)ccc12, the inhibition was -5.04% (CCK-8; 1 µM).
With CCc1c(C)c2ccc(OCc3nnc(S)n3N)c(C)c2oc1=O the viability was 13.5% (MTT; 125 µg/mL).
For NC(=O)C1CCCN1C(=O)Nc1ccccc1/N=c1\cc(-c2ccc3c(c2)OCCO3)oc2cc(F)ccc12 (stereo not drawn), the inhibition was 8.63% (CCK-8; 1 µM).

For quick reference, copied from above:
With CCOC(=O)C(C(C)=O)=C1Sc2nc3ccc(S(=O)(=O)N4CCCC4)cc3nc2S1 the viability was 57.5% (MTT; 1.56 µM, 24 h).
CNCCC(=O)Nc1ccccc1/N=c1\cc(-c2ccc3nc(N)oc3c2)oc2ccccc12 has an inhibition of 69.5% (CCK-8; 1 µM).
